Experimental data collected from several papers.
Every numbered part comes from another study and shows a few of its results, in no order. Positions count from the first letter of the parent shown.

Study 1 — technique: protein-binding microarray; molecule type: double-stranded DNA, one strand shown; sample: in vitro; tested at: 250 nM; notes: 60-bp whole probe; added: salmon DNA 0.4 mg/ml; baseline: random background probes; reading: higher = stronger binding
Target: Interferon regulatory factor 7, full length, phosphomimetic (IRF7, Homo sapiens, UniProt Q92985, residues 1-503, S101K/S471D/S472D/S475D/S476D/S477D/S483D/S484D/S487D)
Sequence of UniProt Q92985 (whole entry, unmodified, looked up): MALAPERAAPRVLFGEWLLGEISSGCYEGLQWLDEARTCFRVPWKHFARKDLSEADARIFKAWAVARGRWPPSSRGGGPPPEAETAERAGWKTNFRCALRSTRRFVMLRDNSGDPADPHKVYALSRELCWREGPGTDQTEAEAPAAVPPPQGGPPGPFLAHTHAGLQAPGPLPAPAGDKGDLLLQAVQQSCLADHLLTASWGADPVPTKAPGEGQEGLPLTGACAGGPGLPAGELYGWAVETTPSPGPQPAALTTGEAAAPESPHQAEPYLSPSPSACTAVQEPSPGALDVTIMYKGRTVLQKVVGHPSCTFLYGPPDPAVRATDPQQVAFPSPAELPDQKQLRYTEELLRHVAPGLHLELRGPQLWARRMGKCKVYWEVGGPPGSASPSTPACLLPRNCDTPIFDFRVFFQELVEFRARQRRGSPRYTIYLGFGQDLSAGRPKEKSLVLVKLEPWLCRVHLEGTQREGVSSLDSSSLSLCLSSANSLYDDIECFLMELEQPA
Oligonucleotide | log fluorescence [z-score]
GCCTAGCACGACGATATCGGGTTTCTAGACGTGCTAGTCTTGATTCGCTTGACGCTGCTG | 0.43
GCCTAGCACGACGGTTTCCGTTTCGGGACGTGCTAGGTCTTGATTCGCTTGACGCTGCTG | 8.55
GCCTAGCACTCATGTGTGTGTTTGTGACTGTGCTAGGTCTTGATTCGCTTGACGCTGCTG | -0.426
GCCTAGCACTCATTTTTTTTTTTTTGACTGTGCTAGGTCTTGATTCGCTTGACGCTGCTG | 0.836

Study 2 — target: CCNA1, cyclin fold, Cln2 fusion (human); technique: yeast growth competition, sequencing; sample: yeast; notes: weak parent motif; baseline: not given; reading: higher = stronger binding
Parent: CDC6 docking peptide (human); TLKGRRLVFDNQL
Variant | normalised enrichment score
R6Q | 0.175
L7N | 0.201
Q12F | -0.121
N11T | 0.192
F9H | -0.0271
T1V | 0.257

Study 3 — technique: RNA Bind-n-Seq; molecule type: RNA; sample: in vitro; tested at: not given; baseline: input RNA pool; reading: higher = stronger binding
Target: RING finger protein unkempt homolog, zinc fingers 1-6, GST-SBP tag (UNK, Homo sapiens, UniProt Q9C0B0, residues 30-357)
Sequence of UniProt Q9C0B0 (30-357, looked up): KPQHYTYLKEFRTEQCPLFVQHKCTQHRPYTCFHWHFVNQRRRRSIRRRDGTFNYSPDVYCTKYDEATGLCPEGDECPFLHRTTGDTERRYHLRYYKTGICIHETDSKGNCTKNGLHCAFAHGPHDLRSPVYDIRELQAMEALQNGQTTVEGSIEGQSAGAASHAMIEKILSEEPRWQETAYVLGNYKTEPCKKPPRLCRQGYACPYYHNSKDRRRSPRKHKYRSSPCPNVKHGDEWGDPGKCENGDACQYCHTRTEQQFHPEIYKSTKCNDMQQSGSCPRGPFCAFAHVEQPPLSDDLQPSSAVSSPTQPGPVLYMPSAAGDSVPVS
Notes: RNA with constant flanks, human-mouse chimeric sites, ends assumed
Shared flanks, not repeated: GGGAGUUCUACAGUCCGACGAUC … CAACAGAGGAUUGAGCAUCA
Oligonucleotide | bound/input enrichment [ratio]
UUUCUACUGCAGCAAACCAUGCUACGAAUUAAGGAUCCUAAGAAGUCCCUGGAUUUUUAUACGAGGGUUCUUGGACUGACCCUCCUGCAAAAAUGUGACUUCCCUGCUAUGAAGUUCUCG | 0.211
AAGCAACGCAAACUUGAAACAAUUCGUUAUCUUGCAGCCUCAGUGUUCACUUGCUUGGCGAUAGCAUAUUGGGAUUUUAGGUUCUGGAAGGAGAACUGACGAUGAUGCUGCCGCUGCUGC | 0.59
UAAGUCCAUUUGUAAGCCUUCGCUCAUAAAGUUUUAAAUUCUGGACCAAUAGUGUUUGUUUCCUGAUUAUUGUAUCCAAUACUUUGCCUAGUAUGUAACUCACUCUUCUGGAUAAAUAAA | 2.09
UCCCAAAUCCAGCAGCUCCUUGAAAUAUUGAGACAAACACUCCACACACAGGGAAGGCGAUAACAUUGUACAUUGGUUUACAUUUUUCUCCUUGAAUGAUUUUUCUAGAGGUCAUAGUGC | 0.372
CUGUGCGGGUGACUGUCCUGGAGUGGCUGGAGUUCCCGCCGGAGCGCGGCCAGACUAAUUUUAGAAAAUGCCAAGUAGGAAGUUUGUUGAGGGUGAAGUGGUCAGAGGCCGAUGGCCUGG | 1.92

Further values, each from its own experiment
Molecule | target | assay | test system | conditions | scale | measurement | value
PhoQ, residues 284 288 289 292 302 303 TSTLRA | PhoP, residues 12 14 15 18 19 FWNTL (Escherichia coli, UniProt P23836) | Sort-seq, measured: YFP reporter | E. coli | PhoQ-PhoP variant library, added: 10 µM Mg2+ | baseline: high Mg2+ state, higher = stronger signaling | fold induction | 2.38
